Assay results from different studies.
Numbered parts are unrelated; each lists some results of a single study. Substitutions count along the parent as printed.

Set 1 — target: CCNE1, cyclin fold, Cln2 fusion (human); method: yeast growth competition, sequencing; matrix: yeast; setting: weak parent motif; reference: not given; direction: higher = stronger binding
Starting sequence: SAMHD1 docking peptide (human); ASKSRVQLFKDDP
Substitution	normalised enrichment score
V6P	-0.443
S4W	0.421
D12M	0.283
S2F	-0.0808
R5M	-0.166
L8S	-0.109
Q7L	0.191
K3W	0.117
F9I	0.184
V6D	-0.209
K10I	0.166
L8E	0.267
V6Y	0.16

Set 2 — method: DHFR PCA, deep sequencing; matrix: yeast; together with: (+)-ABA 17 µM; reference: wild-type fitted maximum; direction: higher = stronger binding
Target: ABI1, truncated, D143A, DHFR fusion (Arabidopsis thaliana)
Setting: methotrexate growth selection, single substitutions
Starting sequence: PYL1, truncated, DHFR fusion (Arabidopsis thaliana); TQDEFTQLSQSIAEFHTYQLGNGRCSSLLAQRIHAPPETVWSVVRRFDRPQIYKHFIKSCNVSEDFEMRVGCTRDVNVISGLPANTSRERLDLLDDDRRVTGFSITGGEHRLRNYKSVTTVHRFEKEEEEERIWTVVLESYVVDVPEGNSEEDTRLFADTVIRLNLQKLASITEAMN
Substitution	relative binding score
I172W	31.4%
T6P	92.9%
R69Q	85.8%
D3H	74.7%
V136A	34.6%
V43F	66.8%
R46E	58%
C60V	82%
D48F	12%
R113F	61.6%
E64C	76.6%
N77D	79.8%
Q51M	47.4%
L166R	0.712%
S63D	91.7%
D96N	52.7%
S26C	82.5%
I79N	53.5%
I33A	3.27%
E130R	84.4%

Set 3 — method: protein-binding microarray; molecule type: hairpin DNA; matrix: in vitro; concentration: not given; reference: not given; direction: higher = stronger binding
Target: Runt-related transcription factor 3, Runt domain (RUNX3, Homo sapiens, UniProt Q13761, residues 53-186)
Chain of UniProt Q13761 (53-186, looked up): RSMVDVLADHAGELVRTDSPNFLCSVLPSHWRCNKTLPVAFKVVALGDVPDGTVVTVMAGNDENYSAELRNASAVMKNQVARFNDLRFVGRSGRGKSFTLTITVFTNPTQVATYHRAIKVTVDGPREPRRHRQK
Setting: whole hairpin DNA, median over replicate spots
Sequence	median fluorescence
GAGGCCTGTCGCGGCGGGCCTCCTGGCCCGCCGCGACAGGCCTCACACTC (5mC at 15)	6100 a.u.
GAGGCCCAACCGGAACAGCCTCCTGGCTGTTCCGGTTGGGCCTCACACTC (5mC at 32)	4760 a.u.
GAGGCCTGTTGCGCGTGGCCTCCTGGCCACGCGCAACAGGCCTCACACTC (5mC at 30)	5190 a.u.
GAGGCCTGTTGCGGTTGGCCTCCTGGCCAACCGCAACAGGCCTCACACTC (5mC at 28)	9500 a.u.
GAGGCCTGTCGCGGTTGGCCTCCTGGCCAACCGCGACAGGCCTCACACTC (5mC at 12 34)	6110 a.u.
GAGGCCTCGCGCGGTTGGCCTCCTGGCCAACCGCGCGAGGCCTCACACTC (5mC at 8 36)	5730 a.u.
CTCAGTTCTGTGGGCTGGACTCCTGTCCAGCCCACAGAACTGAGACACTC (5mC at 35)	3770 a.u.
GAGGCCTGTCGCGGTGGGCCTCCTGGCCCACCGCGACAGGCCTCACACTC (5mC at 29)	5310 a.u.
GAGGCCTCGCGCGGTTGGCCTCCTGGCCAACCGCGCGAGGCCTCACACTC (5mC at 36)	5480 a.u.
CTCAGTTCTGTGCGCTGGACTCCTGTCCAGCGCACAGAACTGAGACACTC (5mC at 13 31)	4110 a.u.
GAGGCCTGTTGCGGCGGGCCTCCTGGCCCGCCGCAACAGGCCTCACACTC	5800 a.u.
GAGGCCTGTCGCGGTTGGCCTCCTGGCCAACCGCGACAGGCCTCACACTC (5mC at 19)	6120 a.u.
GAGGCCTGTTGTGGTTGGCCTCCTGGCCAACCACAACAGGCCTCACACTC (5mC at 28)	5760 a.u.
GAGGCCCAACGGCAACAGCCTCCTGGCTGTTGCCGTTGGGCCTCACACTC (5mC at 10)	5030 a.u.

Set 4 — target: UBE2L6 UBC core domain (UniProt O14933); method: yeast two-hybrid; matrix: yeast; setting: mostly zero background; reference: not given; direction: higher = stronger interaction
B1: ARIH2 RING domain (UniProt O95376); chain HVPTSHPPHHCAVCMQFVRKENLLSLACQHQFCRSCWEQHCSVLVKDGVGVGVSCMAQDCPLRTPEDFVF
B2: ZNRF4 RING domain (UniProt Q8WWF5); chain VRTFTWHNDLCAICLDEYEEGDQLKILPCSHTYHCKCIDPWFSQAPRRSCPVCKQSVAATEDSF
B3: MARCHF1 RING domain (UniProt Q8TCQ1); chain TAPRSQSRLSVCPSTQDICRICHCEGDEESPLITPCRCTGTLRFVHQSCLHQWIKSSDTRCCELCKYDFIMETKLKPLRKWE
B4: RNF182 RING domain (UniProt Q8N6D2); chain AESQASDELECKICYNRYNLKQRKPKVLECCHRVCAKCLYKIIDFGDSPQGVIVCPFCRFETCLPDDEV
B5: MID2 RING domain (UniProt Q9UJV3); chain KMETLESELTCPICLELFEDPLLLPCAHSLCFSCAHRILVSSCSSGESIEPITAFQCPTCRYVISLNHRGL
B6: RUFY1 RING domain (UniProt Q96T51); chain QALKGHAWLKDDEATHCRQCEKEFSISRRKHHCRNCGHIFCNTCSSNELALPSYPKPVRVCDSCHTLLLQRCSSTAS
Construct (chain): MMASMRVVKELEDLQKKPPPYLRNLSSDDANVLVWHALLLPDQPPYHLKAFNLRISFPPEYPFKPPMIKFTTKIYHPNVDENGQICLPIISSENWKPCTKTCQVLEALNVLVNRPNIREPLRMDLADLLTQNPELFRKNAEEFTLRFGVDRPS
Molecule	lacZ reporter activity
ASPKIFQKTKCSICNSALELPSVHFLCGHSFHQHCFESYSESDADCPTCLPENRKVMDMI (VPS11 RING domain (UniProt Q9H270))	0
B1 (ARIH2 RING domain)	0
B2 (ZNRF4 RING domain)	0
B3 (MARCHF1 RING domain)	0
DDVLTKDAGECVICLEELLQGDTIARLPCLCIYHKSCIDSWFEVNRSCPEHPAD (ZNRF1 RING domain (UniProt Q8ND25))	0
FAEQPSVKLCCQLCCSVFKDPVITTCGHTFCRRCALKSEKCPVDNVKLTVVVNNI (TRAF7 RING domain (UniProt Q6Q0C0))	0
B4 (RNF182 RING domain)	0
B5 (MID2 RING domain)	0
B6 (RUFY1 RING domain)	0

Set 5 — method: universal PBM; molecule type: double-stranded DNA, one strand shown; matrix: in vitro; concentration: not given; direction: higher = stronger binding
Target: Sal-like protein 4, full length isoform B (SALL4, Homo sapiens, UniProt Q9UJQ4-2, residues 1-616)
Setting: 8-mer, flanks averaged, mean of replicates
Sequence	E-score
CGAGCAAG	-0.24
AACTACCC	0.0679
GTTGCGAA	-0.0609
AACCCACT	-0.104
CACGCGTA	-0.048
AGCAAAAT	0.207
CAAGTTTA	0.0909
CGGGCTCA	-0.313
ACTGGACA	-0.106
AGATCCTG	-0.088
GTGCAAAC	0.0269
AGAATCCC	0.0174
ACCTCCGA	-0.0646
AAATAGCA	0.202
ATGGGGTG	-0.14
CACGTAGA	-0.148
AAAACTCC	0.0323
GAGGATGA	-0.00454
CACCATGC	-0.256
AGTGAAAC	0.0849
TGGCAAAA	0.209
ATGTTAGA	0.104
GAGAAGAC	-0.115
CCTTTCAA	0.107
TTAGTAAA	0.212

Set 6 — method: protein binding microarray; molecule type: double-stranded DNA, one strand shown; matrix: in vitro; concentration: not given; reference: not given; direction: higher = stronger binding
Target: Histone acetyltransferase KAT6A, winged helix 2, GST fusion (KAT6A, Homo sapiens, UniProt Q92794, residues 85-181)
Setting: 8-mer, flanks averaged, mean of 2 arrays, mostly near background
Residues (chain): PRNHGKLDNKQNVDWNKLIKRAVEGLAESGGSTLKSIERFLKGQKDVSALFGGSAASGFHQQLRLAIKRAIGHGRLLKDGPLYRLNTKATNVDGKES
Sequence	E-score
CTTGTGCA	0.0534
CAAACTAC	-0.0146
CTATGAAA	-0.125
CTGACTAC	-0.231
ATTACGCG	-0.0246
AAAGTGAT	0.026
ACTAGACT	-0.289
CGGCGGAG	0.223
CAGTATGC	-0.0182
ATTAATCA	-0.00813
TAGCACCA	0.0281
CGCGTTAC	-0.0664
CGTTTTAC	-0.0191
GGCAGGGA	0.0269
GACCTCCC	0.0543
CCGGGAGG	0.142
ATAAATGA	-0.00164
GCCTGCAA	0.151
CCGACCAG	-0.0454
GCCGTACC	0.275
AGACTTTA	-0.124
AACTCTCC	0.0349
AGACTTCC	-0.258
AACGCCGA	0.143
AAACGATG	-0.0783

For quick reference, copied from above (set 3):
Sequence	median fluorescence
GAGGCCTGTCGCGGCGGGCCTCCTGGCCCGCCGCGACAGGCCTCACACTC (5mC at 15)	6100 a.u.
GAGGCCCAACCGGAACAGCCTCCTGGCTGTTCCGGTTGGGCCTCACACTC (5mC at 32)	4760 a.u.
GAGGCCTGTTGCGCGTGGCCTCCTGGCCACGCGCAACAGGCCTCACACTC (5mC at 30)	5190 a.u.
GAGGCCTGTTGCGGTTGGCCTCCTGGCCAACCGCAACAGGCCTCACACTC (5mC at 28)	9500 a.u.
GAGGCCTGTCGCGGTTGGCCTCCTGGCCAACCGCGACAGGCCTCACACTC (5mC at 12 34)	6110 a.u.
GAGGCCTCGCGCGGTTGGCCTCCTGGCCAACCGCGCGAGGCCTCACACTC (5mC at 8 36)	5730 a.u.
CTCAGTTCTGTGGGCTGGACTCCTGTCCAGCCCACAGAACTGAGACACTC (5mC at 35)	3770 a.u.
GAGGCCTGTCGCGGTGGGCCTCCTGGCCCACCGCGACAGGCCTCACACTC (5mC at 29)	5310 a.u.
GAGGCCTCGCGCGGTTGGCCTCCTGGCCAACCGCGCGAGGCCTCACACTC (5mC at 36)	5480 a.u.
CTCAGTTCTGTGCGCTGGACTCCTGTCCAGCGCACAGAACTGAGACACTC (5mC at 13 31)	4110 a.u.
GAGGCCTGTTGCGGCGGGCCTCCTGGCCCGCCGCAACAGGCCTCACACTC	5800 a.u.
GAGGCCTGTCGCGGTTGGCCTCCTGGCCAACCGCGACAGGCCTCACACTC (5mC at 19)	6120 a.u.
GAGGCCTGTTGTGGTTGGCCTCCTGGCCAACCACAACAGGCCTCACACTC (5mC at 28)	5760 a.u.
GAGGCCCAACGGCAACAGCCTCCTGGCTGTTGCCGTTGGGCCTCACACTC (5mC at 10)	5030 a.u.
